Measurements gathered from unrelated publications.
Numbers after ± are the reported error.

CCOP(=O)(OCC)OCCCCOC(=O)CC1=C(C)/C(=C/c2ccc([S+](C)[O-])cc2)c2ccc(F)cc21 (centres unmarked)  Tmax (rat, blood; topical, 50 mg/kg, PSH vehicle): 4 h
CCCC[C@@H]1NC(=O)[C@H](Cc2ccc(O)cc2)NC(=O)[C@@H]2CCCN2C(=O)[C@H](CC(=O)O)NC(=O)[C@H](C)NC(=O)[C@H](Cc2ccccc2)NC(=O)[C@@H]2CSCCC(=O)N3CN(CN(C3)C(=O)CCSC[C@@H](C(=O)N[C@@H](C)C(N)=O)NC1=O)C(=O)CCSC[C@H](NC(C)=O)C(=O)N[C@@H](CC(C)(C)C)C(=O)N1CCC[C@H]1C(=O)N[C@@H](CCC(=O)O)C(=O)N[C@H](CCCCNC(=O)CCc1cn(CCOCCOCCOCCN(CCOCCOCCOCCC(=O)N[C@H]3CSCCC(=O)N4CN5CN(C4)C(=O)CCSC[C@H](NC(=O)[C@@H](CC(=O)O)NC(=O)[C@H](Cc4cccc6ccccc46)NC(=O)[C@@H]4CCCN4C3=O)C(=O)N[C@@H](CCSC)C(=O)N[C@@H](CCCCNC(=N)N)C(=O)N[C@@H](CC(=O)O)C(=O)N[C@@H](Cc3c[nH]c4ccccc34)C(=O)N[C@@H](CO)C(=O)N[C@@H]([C@@H](C)O)C(=O)N3CCC[C@H]3C(=O)N3C[C@H](O)C[C@H]3C(=O)N[C@@H](Cc3c[nH]c4ccccc34)C(=O)N[C@H](C(N)=O)CSCCC5=O)CCOCCOCCOCCn3cc(CCC(=O)NCCCC[C@H]4NC(=O)[C@H](CCC(=O)O)NC(=O)[C@@H]5CCCN5C(=O)[C@H](CC(C)(C)C)NC(=O)[C@@H](NC(C)=O)CSCCC(=O)N5CN6CN(C5)C(=O)CCSC[C@H](NC(=O)[C@H](Cc5ccc(O)cc5)NC(=O)[C@@H]5CCCN5C4=O)C(=O)N[C@@H](Cc4ccccc4)C(=O)N[C@@H](C)C(=O)N[C@@H](CC(=O)O)C(=O)N4CCC[C@H]4C(=O)N[C@@H](Cc4ccc(O)cc4)C(=O)N[C@@H](CCCC)C(=O)N[C@H](C(=O)N[C@@H](C)C(N)=O)CSCCC6=O)nn3)nn1)C(=O)N1CCC[C@H]1C(=O)N[C@@H](Cc1ccc(O)cc1)C(=O)N2  liver enzymes (measured: ALT, AST, alkaline phosphatase; mouse, CT26-Nectin-4 syngeneic tumour, blood; dose not given, day 15): no effect
C[C@]12CC[C@H](O)CC1CCC1C2[C@H](O)C(=O)[C@]2(C)[C@@H](c3ccc(=O)oc3)CC[C@]12O (some centres unmarked)  Km (sulfation, substrate; rabbit liver cytosol; pH 7.4): 78.5 ± 3.6 µM
CC(=O)N[C@@H](Cc1ccc(O)cc1)C(=O)N[C@@H](CC(C)C)C(=O)N[C@@H](CS)C(=O)N[C@@H](CO)C(=O)N[C@@H](CO)C(=O)N[C@@H](CC(N)=O)C(=O)N[C@@H](CC(N)=O)C(=O)N[C@@]1(C)CCCC=CCCC[C@@](C)(C(=O)N[C@@H](CCCCN)C(=O)N[C@@H](Cc2ccccc2)C(=O)N[C@@H](CCCNC(=N)N)C(=O)N[C@@H](CCCNC(=N)N)C(=O)NCC(=O)NCC(=O)N[C@@H](CO)C(=O)NCC(=O)NCC(=O)N[C@H](C(=O)N[C@@H](CO)C(=O)N[C@@H](Cc2ccccc2)C(=O)N[C@@]2(C)CCCC=CCCC[C@@](C)(C(=O)N[C@@H](Cc3c[nH]c4ccccc34)C(=O)N[C@@H](CC(C)C)C(=O)N[C@@H](Cc3c[nH]c4ccccc34)C(=O)N3CCC[C@H]3C(N)=O)NC(=O)[C@H](Cc3c[nH]c4ccccc34)NC(=O)[C@H](Cc3ccccc3)NC(=O)[C@H](CCC(N)=O)NC2=O)[C@@H](C)O)NC(=O)[C@H](CCCNC(=N)N)NC(=O)[C@H](CCC(=O)O)NC(=O)[C@H](CCCNC(=N)N)NC1=O  AUC (C57BL/6J mouse, male, plasma; intraperitoneal, dose not given): 1280 µg·h/mL
CC(CCC(=O)NCC(=O)O)C1CCC2C3C(O)CC4CC(OC5OC(C(=O)O)C(O)C(O)C5O)CCC4(C)C3CCC12C (centres unmarked)  plasma concentration (human, SLCO1B1 *15/*35, plasma; geometric mean, sex-adjusted): 38.9 ng/mL
CC(C)(O)c1ccccc1CC[C@H](c1cccc(/C=C/c2ccc3ccc(Cl)cc3n2)c1)S(=O)(=O)CC1(CC(=O)O)CC1  percent metabolized (human liver cytosol; 1 µM, 30 min, 1 mg/mL protein): 32.4%
CN[C@](C)(C[18F])C(=O)O  tissue uptake (SCID mouse SK-OV-3 xenograft, kidney; 120 min post injection): 4.3 ± 0.5 %ID/g
CCNC(=O)C1OC(n2cnc3c(N)ncnc32)C(O)C1O (centres unmarked)  log kIAM (IAM chromatography; pH 7.4): -0.57
CC[C@H](C)C(=O)N1CCC(NC(=O)Nc2ccc(OC(F)(F)F)c(F)c2)CC1  subjects with dyspnoea TEAE (healthy volunteers; oral, 24 mg single dose, 14 (unit not given)): 0%
O=C(NCCCCCCCCn1ccc2ccccc21)Oc1ccccc1  parent remaining (porcine plasma; 20 µM, 30 min): 64 ± 4%
Cc1ccc(C(C)C)cc1.O=C(N=P(c1ccccc1)(c1ccccc1)c1ccccc1)c1ccccn1.[Cl-].[Cl-].[Ru+2]  lethal dose (C57BL/6 mice; intraperitoneal): 30 mg/kg/day
CCCCCCCCCCCCC(=O)O.O=C1CCCC2C3CCCN4CCCC(CN12)C34 (centres unmarked)  entropic term −TΔS of aggregation (electrical conductivity; water; 308.15 K): -8.04 kcal/mol
COc1ccc(C2=Nn3c(N/N=C4/C(=O)Nc5ccccc54)nnc3SC2)cc1  toxicity (chick embryo, chorioallantoic membrane; 40 µM): toxic
COc1cc2ncnc(Oc3cccc(N[11C](=O)Nc4cc(C(C)(C)C(F)(F)F)on4)c3)c2cc1OC  radioactivity (female Balb/c nude mice, urine; intravenous, dose not given, 30 min): 6.34 ± 0.78 %ID/g
CC(C)(CCCC/C=C/CCCCCC(C)(C)C(=O)O)C(=O)O  plasma protein binding (humans plasma): > 99.8%
COC(=O)C[C@](O)(CCCC(C)(C)OC(C)=O)C(=O)O[C@@H]1C(OC)=C[C@]23CCCN2CCc2cc4c(cc2[C@H]13)OCO4  tissue concentration (CD1 mouse, large intestine; oral, 1 mg/kg, 8 h): 16.8 ng/mL
CCCCCCCC(=O)NCCCC[C@H](NC(=O)[C@H](Cc1ccccc1)NC(=O)[C@@H](CCCNC(=N)N)NC(=O)[C@@H](N)Cc1ccc(O)cc1)C(N)=O  MRT (male CD-1 mouse, plasma; intravenous, 3 mg/kg): 0.63 h
CC(C)C[C@H](NC(=O)[C@H](CCCCN)NC(=O)[C@H](CCC(=O)O)NC(=O)[C@H](C)NC(=O)[C@@H](NC(=O)[C@H](CCCCN)NC(=O)[C@H](CC(=O)O)NC(=O)[C@H](Cc1ccc(O)cc1)NC(=O)[C@H](Cc1ccccc1)NC(=O)[C@H](C)NC(=O)[C@H](CCCCN)NC(=O)[C@H](CC(C)C)NC(=O)[C@H](Cc1c[nH]c2ccccc12)NC(=O)[C@@H](N)CC(=O)O)C(C)C)C(=O)N[C@@H](CCCCN)C(=O)N[C@@H](CCC(=O)O)C(=O)N[C@@H](C)C(=O)N[C@@H](Cc1ccccc1)C(=O)N1CCC[C@H]1C(=O)N[C@@H](CC(=O)O)C(=O)N[C@@H](Cc1c[nH]c2ccccc12)C(=O)N[C@@H](C)C(=O)N[C@@H](CCCCN)C(=O)N[C@@H](C)C(=O)N[C@@H](C)C(=O)N[C@@H](Cc1ccc(O)cc1)C(=O)N[C@@H](CC(=O)O)C(=O)N[C@@H](CCCCN)C(=O)N[C@@H](C)C(=O)N[C@@H](C)C(=O)N[C@@H](CCC(=O)O)C(=O)N[C@@H](CCCCN)C(=O)N[C@@H](C)C(=O)N[C@@H](CCCCN)C(=O)N[C@@H](CCC(=O)O)C(=O)N[C@@H](C)C(=O)N[C@@H](C)C(=O)O  half-life (cynomolgus monkey female, plasma; intravenous infusion, 25 mg/kg every other day, day 27): 6.2 h
CC[C@H](C)[C@H](NC(=O)[C@H](Cc1ccccc1)NC(=O)[C@H](CC(=O)O)NC(=O)[C@H](CCCNC(=N)N)NC(=O)[C@H](Cc1ccccc1)NC(=O)[C@H](Cc1ccccc1)NC(=O)[C@H](CCCCN)NC(=O)[C@H](CO)NC(=O)[C@H](CC(C)C)NC(=O)[C@H](CCCNC(=N)N)NC(=O)[C@H](CCSC)NC(=O)[C@H](C)N)C(=O)N[C@@H](CN)C(=O)N[C@@H](CCC(N)=O)C(=O)N[C@@H](CCCNC(=N)N)C(=O)N[C@@H](CCCCN)C(=O)N[C@@H](CCCCN)C(=O)O  helicity (circular dichroism; 20% TFE in PBS; 200 µM, pH 7.4, 25 °C): 19%
COc1cc(NC(=O)C(=O)c2c(C)n(Cc3ccc(Cl)cc3)c3ccc(C)cc23)ccn1  oral bioavailability (cynomolgus monkey, male, plasma; oral, 10 mg/kg, range of individual values): 11 to 18%
CCCC[C@@H]1NC(=O)[C@@H](CC(C)C)NC(=O)[C@H](CCCCN)NC(=O)[C@@H](CO)NC(=O)[C@H](Cc2c[nH]cn2)NC(=O)[C@@H](Cc2c[nH]c3ccccc23)NC1=O  toxicity (wild-type mouse; 10 mg/kg repeated): not toxic
Cc1cccc(-c2cccc(C)n2)n1.[Cl-].[Cl-].[Ru+2].c1ccc(-c2ccccn2)nc1.c1ccc(-c2ccccn2)nc1  log P (shake flask; n-octanol/water; dark): -1.85 ± 0.04
CN(CC(=O)N(Cc1ccc(C2CCCCC2)cc1)c1ccc(C(=O)O)cc1)S(=O)(=O)c1c(F)c(F)c(F)c(F)c1F  half-life of GSH adduct formation (100 µM, together with: 10 mM glutathione): 1.32 h
Cc1cc([C@H](C(=O)N2C[C@H](O)C[C@H]2C(=O)N[C@@H](CC(=O)N2CCC(N3CCC(C#Cc4ccc(C(=O)N[C@H]5C(C)(C)[C@H](Oc6ccc(C#N)c(Cl)c6)C5(C)C)cc4)CC3)CC2)c2ccc(-c3scnc3C)cc2)C(C)C)on1  toxicity (mouse MDA-MB-453 xenograft; dose not given, whole efficacy study): not toxic
C[C@@H]1CC[C@H]2[C@@H](C)CO[C@@H]3O[C@@]4(C)CC[C@@H]1[C@]32OO4  MRT(0-t) (male Sprague-Dawley rat, plasma; intravenous, 5 mg/kg): 0.323 h
CC(C)[C@H](NC(=O)CNC(=O)[C@H](CCC(N)=O)NC(=O)[C@H](C)N)C(=O)O  subjects with mild adverse events (human; 1 mg/kg single dose): 16.7%
N=C(N)NCCC[C@H](NC(=O)[C@H](CCCNC(=N)N)NC(=O)[C@H](Cc1ccccc1)NC(=O)[C@H](Cc1c[nH]c2ccccc12)NC(=O)[C@H](Cc1c[nH]c2ccccc12)NC(=O)[C@H](Cc1ccccc1)NC(=O)[C@H](CCCNC(=N)N)NC(=O)[C@H](CCCNC(=N)N)NC(=O)[C@@H](N)Cc1ccccc1)C(=O)N[C@@H](Cc1ccccc1)C(N)=O  liver, spleen, kidney indices (ICR mouse; intraperitoneal, 5, 10, 20 mg/kg daily, 3 days; baseline: saline): no effect
NC(=O)[C@@H](CCCCNC(=O)CNC(=O)CCC(=O)NCCc1c[nH]cn1)NC(=O)[C@@H](Cc1ccc(O)cc1)NC(=O)[C@@H](CCCCNC(=O)CNC(=O)CCC(=O)NCCc1c[nH]cn1)NC(=O)Cc1ccc(CN2CCN(CC(=O)O)CCN(CC(=O)O)CC2)cc1 [fluorine-18 labelled]  tissue ratio (tumour-bearing nude mice; intravenous, 3 h, TF2 pretargeting; baseline: tumour over kidney): 12 ± 3
CC[C@H](C)[C@H](NC(=O)[C@H](CC(=O)O)NC(=O)[C@H](CO)NC(=O)[C@H](CCC(N)=O)NC(=O)[C@H](C)NC(=O)[C@H](CC(=O)O)NC(=O)[C@H](CCC(=O)O)NC(=O)[C@H](Cc1c[nH]cn1)NC(=O)[C@H](Cc1ccc(O)cc1)NC(=O)[C@H](C)NC(=O)[C@H](CC(=O)O)NC(=O)[C@H](CCC(=O)O)NC(=O)[C@H](Cc1c[nH]cn1)NC(=O)[C@H](Cc1ccc(O)cc1)NC(=O)[C@H](C)NC(=O)[C@H](CC(=O)O)NC(=O)[C@H](CCC(=O)O)NC(=O)[C@H](Cc1c[nH]cn1)NC(=O)[C@H](Cc1ccc(O)cc1)NC(=O)[C@H](C)NC(=O)[C@H](CC(=O)O)NC(=O)[C@H](CCC(=O)O)NC(=O)[C@H](Cc1c[nH]cn1)NC(=O)[C@H](Cc1ccc(O)cc1)NC(=O)[C@H](C)NC(=O)[C@H](CC(=O)O)NC(=O)[C@H](CCC(=O)O)NC(=O)[C@H](Cc1c[nH]cn1)NC(=O)[C@@H](N)Cc1ccc(O)cc1)C(=O)N[C@H](C(=O)N[C@@H](C)C(=O)N[C@@H](Cc1c[nH]cn1)C(=O)N[C@@H](CC(C)C)C(=O)N[C@@H](CC(C)C)C(=O)O)C(C)C  BUN (normal mouse; dose not given): 18.6 ± 2.1 mg/dL

For quick reference, copied from above:
Cc1cc([C@H](C(=O)N2C[C@H](O)C[C@H]2C(=O)N[C@@H](CC(=O)N2CCC(N3CCC(C#Cc4ccc(C(=O)N[C@H]5C(C)(C)[C@H](Oc6ccc(C#N)c(Cl)c6)C5(C)C)cc4)CC3)CC2)c2ccc(-c3scnc3C)cc2)C(C)C)on1  toxicity (mouse MDA-MB-453 xenograft; dose not given, whole efficacy study): not toxic
C[C@@H]1CC[C@H]2[C@@H](C)CO[C@@H]3O[C@@]4(C)CC[C@@H]1[C@]32OO4  MRT(0-t) (male Sprague-Dawley rat, plasma; intravenous, 5 mg/kg): 0.323 h
CC(C)[C@H](NC(=O)CNC(=O)[C@H](CCC(N)=O)NC(=O)[C@H](C)N)C(=O)O  subjects with mild adverse events (human; 1 mg/kg single dose): 16.7%
